Measurements of several laboratories.
A part holds a random share of what one study measured.
Chain of UniProt P35590 (whole entry, looked up): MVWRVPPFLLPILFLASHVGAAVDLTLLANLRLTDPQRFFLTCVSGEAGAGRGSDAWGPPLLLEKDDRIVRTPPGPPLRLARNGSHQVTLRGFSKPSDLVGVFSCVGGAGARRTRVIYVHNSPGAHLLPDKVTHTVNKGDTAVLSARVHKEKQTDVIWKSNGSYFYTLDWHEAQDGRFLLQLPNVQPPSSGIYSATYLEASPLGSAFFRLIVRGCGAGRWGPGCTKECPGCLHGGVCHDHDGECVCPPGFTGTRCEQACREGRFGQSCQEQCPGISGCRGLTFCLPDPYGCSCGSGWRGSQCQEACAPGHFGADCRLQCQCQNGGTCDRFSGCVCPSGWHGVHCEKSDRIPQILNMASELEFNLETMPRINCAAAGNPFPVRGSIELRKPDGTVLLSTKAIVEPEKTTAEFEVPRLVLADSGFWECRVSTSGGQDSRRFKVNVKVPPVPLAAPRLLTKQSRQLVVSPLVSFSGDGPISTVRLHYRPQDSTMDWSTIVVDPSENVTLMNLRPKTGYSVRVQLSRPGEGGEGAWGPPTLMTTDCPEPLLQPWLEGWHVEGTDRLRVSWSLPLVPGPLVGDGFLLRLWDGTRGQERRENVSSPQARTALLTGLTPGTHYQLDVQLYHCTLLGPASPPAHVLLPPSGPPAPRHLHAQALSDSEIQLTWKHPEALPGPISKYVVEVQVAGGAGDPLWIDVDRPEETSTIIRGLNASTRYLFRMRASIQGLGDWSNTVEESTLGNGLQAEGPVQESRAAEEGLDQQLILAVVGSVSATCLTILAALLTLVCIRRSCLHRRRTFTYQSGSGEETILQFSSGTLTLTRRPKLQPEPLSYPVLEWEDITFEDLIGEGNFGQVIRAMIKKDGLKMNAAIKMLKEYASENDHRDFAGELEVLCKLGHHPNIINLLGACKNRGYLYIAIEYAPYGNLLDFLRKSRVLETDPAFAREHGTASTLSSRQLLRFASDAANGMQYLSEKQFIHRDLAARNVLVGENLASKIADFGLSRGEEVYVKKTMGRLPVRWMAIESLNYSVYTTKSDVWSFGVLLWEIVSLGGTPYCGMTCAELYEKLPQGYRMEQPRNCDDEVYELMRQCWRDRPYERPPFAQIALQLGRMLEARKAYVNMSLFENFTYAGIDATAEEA
Chain of UniProt O60285 (whole entry, looked up): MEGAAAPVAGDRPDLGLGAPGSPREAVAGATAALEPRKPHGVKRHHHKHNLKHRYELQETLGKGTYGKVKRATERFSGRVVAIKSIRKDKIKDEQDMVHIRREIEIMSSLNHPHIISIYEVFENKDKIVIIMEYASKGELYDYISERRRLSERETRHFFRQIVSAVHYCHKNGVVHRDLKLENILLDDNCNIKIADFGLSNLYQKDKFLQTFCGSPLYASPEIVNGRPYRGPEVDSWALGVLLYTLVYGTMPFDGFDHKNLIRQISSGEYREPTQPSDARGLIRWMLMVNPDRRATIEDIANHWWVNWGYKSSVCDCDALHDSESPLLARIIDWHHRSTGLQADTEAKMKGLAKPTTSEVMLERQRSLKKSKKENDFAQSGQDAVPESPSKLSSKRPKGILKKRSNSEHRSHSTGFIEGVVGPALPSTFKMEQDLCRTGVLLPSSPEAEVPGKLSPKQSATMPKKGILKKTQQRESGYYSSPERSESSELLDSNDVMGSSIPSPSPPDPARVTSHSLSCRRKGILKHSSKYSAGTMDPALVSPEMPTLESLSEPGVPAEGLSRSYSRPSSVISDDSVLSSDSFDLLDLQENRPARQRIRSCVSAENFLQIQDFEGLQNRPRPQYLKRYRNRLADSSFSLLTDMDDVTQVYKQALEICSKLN

Sample 1
Target: DNA polymerase theta, ATPase domain (POLQ, Homo sapiens, UniProt O75417)
Chain of UniProt O75417 (whole entry, unmodified, looked up): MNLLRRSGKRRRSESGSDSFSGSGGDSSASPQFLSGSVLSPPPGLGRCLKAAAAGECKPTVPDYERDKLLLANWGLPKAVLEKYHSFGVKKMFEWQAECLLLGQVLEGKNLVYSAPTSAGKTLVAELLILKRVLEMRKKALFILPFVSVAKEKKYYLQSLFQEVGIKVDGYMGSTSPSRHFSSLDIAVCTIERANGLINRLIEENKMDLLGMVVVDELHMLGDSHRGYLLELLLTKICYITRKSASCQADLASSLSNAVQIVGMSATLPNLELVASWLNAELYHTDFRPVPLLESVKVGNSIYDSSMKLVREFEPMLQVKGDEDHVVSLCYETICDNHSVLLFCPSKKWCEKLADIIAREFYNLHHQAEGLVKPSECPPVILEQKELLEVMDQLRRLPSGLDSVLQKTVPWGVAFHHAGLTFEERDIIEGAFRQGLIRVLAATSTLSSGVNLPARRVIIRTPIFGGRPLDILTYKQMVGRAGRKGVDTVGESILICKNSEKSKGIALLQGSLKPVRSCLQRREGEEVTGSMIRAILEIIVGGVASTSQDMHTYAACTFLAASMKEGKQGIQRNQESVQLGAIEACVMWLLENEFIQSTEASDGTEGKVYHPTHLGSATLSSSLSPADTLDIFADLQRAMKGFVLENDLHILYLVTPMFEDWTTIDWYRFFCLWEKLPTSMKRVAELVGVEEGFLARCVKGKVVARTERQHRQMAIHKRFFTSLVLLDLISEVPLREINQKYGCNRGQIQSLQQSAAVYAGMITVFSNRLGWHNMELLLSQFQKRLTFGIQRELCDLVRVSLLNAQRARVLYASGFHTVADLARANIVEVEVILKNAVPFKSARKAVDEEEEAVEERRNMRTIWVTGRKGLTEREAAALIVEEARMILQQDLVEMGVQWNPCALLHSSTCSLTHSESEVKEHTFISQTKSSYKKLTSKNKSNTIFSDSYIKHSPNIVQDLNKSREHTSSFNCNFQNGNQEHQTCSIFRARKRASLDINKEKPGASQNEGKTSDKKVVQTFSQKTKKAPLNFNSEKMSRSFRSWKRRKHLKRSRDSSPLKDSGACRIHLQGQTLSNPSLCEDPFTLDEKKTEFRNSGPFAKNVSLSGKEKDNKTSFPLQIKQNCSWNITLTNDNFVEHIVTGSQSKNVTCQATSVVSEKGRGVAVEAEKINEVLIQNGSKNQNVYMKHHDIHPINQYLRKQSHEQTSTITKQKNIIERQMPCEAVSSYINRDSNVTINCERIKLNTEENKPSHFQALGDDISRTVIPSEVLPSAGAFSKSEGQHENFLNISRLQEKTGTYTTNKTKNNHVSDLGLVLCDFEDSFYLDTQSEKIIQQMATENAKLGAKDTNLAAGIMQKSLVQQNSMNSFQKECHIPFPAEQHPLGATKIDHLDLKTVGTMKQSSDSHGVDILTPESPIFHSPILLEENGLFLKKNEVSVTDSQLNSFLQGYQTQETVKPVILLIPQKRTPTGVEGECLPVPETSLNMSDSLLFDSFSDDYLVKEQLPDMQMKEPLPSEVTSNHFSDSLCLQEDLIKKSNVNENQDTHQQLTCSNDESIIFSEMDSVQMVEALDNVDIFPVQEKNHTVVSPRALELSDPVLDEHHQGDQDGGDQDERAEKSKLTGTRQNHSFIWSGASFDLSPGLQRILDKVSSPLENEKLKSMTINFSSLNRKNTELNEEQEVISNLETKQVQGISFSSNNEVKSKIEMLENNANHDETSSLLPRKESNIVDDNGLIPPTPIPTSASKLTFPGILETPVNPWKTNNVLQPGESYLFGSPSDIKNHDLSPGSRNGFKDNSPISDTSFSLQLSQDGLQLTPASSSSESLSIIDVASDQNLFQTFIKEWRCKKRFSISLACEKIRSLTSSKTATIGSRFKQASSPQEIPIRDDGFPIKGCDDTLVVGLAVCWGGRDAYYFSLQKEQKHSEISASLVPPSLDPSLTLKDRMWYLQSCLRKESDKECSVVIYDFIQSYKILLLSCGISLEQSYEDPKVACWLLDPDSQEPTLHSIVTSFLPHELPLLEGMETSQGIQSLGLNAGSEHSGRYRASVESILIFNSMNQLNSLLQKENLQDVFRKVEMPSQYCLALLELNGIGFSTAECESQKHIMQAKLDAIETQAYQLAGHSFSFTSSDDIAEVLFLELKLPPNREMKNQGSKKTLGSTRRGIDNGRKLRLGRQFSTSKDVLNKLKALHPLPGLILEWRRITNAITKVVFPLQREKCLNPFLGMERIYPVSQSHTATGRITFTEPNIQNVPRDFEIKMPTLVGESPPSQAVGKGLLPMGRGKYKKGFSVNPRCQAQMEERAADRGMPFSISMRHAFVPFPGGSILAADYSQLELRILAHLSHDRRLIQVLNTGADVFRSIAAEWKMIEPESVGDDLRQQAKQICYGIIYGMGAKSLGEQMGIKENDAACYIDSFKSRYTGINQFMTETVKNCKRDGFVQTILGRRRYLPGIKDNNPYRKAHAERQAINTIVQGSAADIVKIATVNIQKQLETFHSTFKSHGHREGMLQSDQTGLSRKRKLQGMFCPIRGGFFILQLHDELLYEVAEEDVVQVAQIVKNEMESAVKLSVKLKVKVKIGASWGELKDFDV
Effect on: enzyme activity
Mode: inhibitor
Concentration: 77 µM
Baseline: untreated
For `Cc1cc(F)c(Nc2ncnc3cc(OCc4ccccc4)ccc23)cc1O`, the remaining activity was 98.4%.
`CC(C)C[C@H](NC(=O)[C@@H]1O[C@H]1C(=O)O)C(=O)NCCCCN=C(N)N` has a remaining activity of 99.1%.
`Cc1cnc(C(=O)O)c[n+]1[O-]` gave a remaining activity of 81.6%.
For `[NH-]c1c[n+](N2CCOCC2)no1`, the remaining activity was 101%.
The remaining activity of `NCC(=O)CCC(=O)O` is reported as 101%.
For `COc1ccc(CNC(=O)Nc2ncc([N+](=O)[O-])s2)cc1`, the remaining activity was 95.7%.
For `CCN(CC)CCNC(=O)c1cc(Br)c(N)cc1OC`, the remaining activity was 99.7%.
For `CNC(=O)Nc1ccc(-c2nc(N3CC4CCC(C3)O4)c3cnn(C4CCC5(CC4)OCCO5)c3n2)cc1`, the remaining activity was 98.2%.
`Cc1onc(-c2ccccc2)c1-c1ccc(S(N)(=O)=O)cc1` has a remaining activity of 97.2%.
`CCCC(=O)OCOC(=O)C1=C(C)NC(C)=C(C(=O)OC)C1c1cccc(Cl)c1Cl` (stereo not drawn) gave a remaining activity of 102%.
`N[C@H](C(=O)O)[C@H](Cc1ccccc1)C(=O)O` has a remaining activity of 96.4%.
`O=C1Cc2cc(CCN3CCN(c4nsc5ccccc45)CC3)c(Cl)cc2N1` gave a remaining activity of 97.4%.

Sample 2
Target: Eukaryotic initiation factor 4A-I (EIF4A1, Homo sapiens, UniProt P60842)
Chain of UniProt P60842 (whole entry, looked up): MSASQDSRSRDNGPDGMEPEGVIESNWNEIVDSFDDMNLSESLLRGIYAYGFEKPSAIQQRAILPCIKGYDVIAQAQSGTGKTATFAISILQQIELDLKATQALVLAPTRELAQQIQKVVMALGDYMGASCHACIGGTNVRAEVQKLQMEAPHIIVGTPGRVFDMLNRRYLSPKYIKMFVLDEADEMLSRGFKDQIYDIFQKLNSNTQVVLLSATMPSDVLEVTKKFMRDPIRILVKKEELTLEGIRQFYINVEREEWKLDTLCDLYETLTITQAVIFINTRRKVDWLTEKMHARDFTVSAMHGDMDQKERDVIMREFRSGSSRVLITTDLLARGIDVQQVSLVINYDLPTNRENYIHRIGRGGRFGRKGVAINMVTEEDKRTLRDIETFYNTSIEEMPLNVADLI
Effect on: RNA clamping
Technique: fluorescence polarization
Concentration: concentration not given
With: FAM-labelled poly r(AG)8 RNA
Reading: higher = more clamping
Under “fluorescence polarization change”, `COC(=O)[C@@H]1[C@@H](c2ccccc2)[C@]2(c3ccc(OC)cc3)Oc3cc(OC)cc(OC)c3[C@@]23OC(c2cccnc2)=N[C@@]13O` is recorded as -0.1 mP.
`C#CCOCCOCCNC(=O)CCCn1c(-c2ccccc2)nc2c(c1=O)[C@@H](c1ccccc1)[C@]1(c3ccc(OC)cc3)Oc3cc(OC)cc(OC)c3[C@]21O`: “fluorescence polarization change” 24.1 mP.
`CCCN(CCC)[C@@]12C(=O)[C@H](C(=O)OC)[C@@H](c3ccccc3)[C@]1(c1ccc(OC)cc1)Oc1cc(OC)cc(OC)c12`: “fluorescence polarization change” 0.2 mP.
Under “fluorescence polarization change”, `COc1ccc([C@@]23Oc4cc(OC)cc(OC)c4[C@]2(O)[C@@H](O)[C@H](C(=O)c2ccco2)[C@H]3c2ccccc2)cc1` is recorded as 24.4 mP.
For `COc1ccc([C@]23Oc4cc(OC)cc(OC)c4[C@@]2(O)c2nc(-c4ccc(C)cc4)[nH]c(=O)c2[C@@H]3c2ccccc2)cc1`, “fluorescence polarization change” read 29.5 mP.
Under “fluorescence polarization change”, `COc1ccc([C@]23Oc4cc(OC)cc(OC)c4[C@](O)([C@H](C(=O)NCCCC(OC)OC)[C@H]2c2ccccc2)[C@H]3O)cc1` is recorded as 6.5 mP.
`COc1ccc([C@]23Oc4cc(OC)cc(OC)c4[C@@]2(O)c2nc(-c4cccc(OC)c4)[nH]c(=O)c2[C@@H]3c2ccccc2)cc1`: “fluorescence polarization change” 11.6 mP.
For `COC(=O)[C@H]1[C@@H](O)[C@@]2(O)c3c(OC)cc(OC)cc3N(C)[C@@]2(c2ccc(Br)cc2)[C@@H]1c1ccccc1`, “fluorescence polarization change” read 17.6 mP.
`COc1ccc([C@@]23Oc4cc(OC)cc(OC)c4[C@]2(O)c2nc(-c4ccccc4)n(CC(CC(=O)O)OC)c(=O)c2[C@H]3c2ccccc2)cc1` (stereo partly drawn) — result for “fluorescence polarization change”: 0.8 mP.
Under “fluorescence polarization change”, `CO/N=C(\c1ccco1)[C@H]1[C@@H](O)[C@@]2(O)c3c(OC)cc(OC)cc3O[C@@]2(c2ccc(OC)cc2)[C@@H]1c1ccccc1` is recorded as 3.1 mP.
`COc1ccc([C@@]23Oc4cc(OC)cc(OC)c4[C@]2(O)[C@H](O)[C@H](C(=O)c2ccco2)[C@H]3c2ccccc2OC)cc1`: “fluorescence polarization change” 32.5 mP.
`COc1ccc([C@@]23Oc4cc(OC)cc(OC)c4[C@]2(O)[C@H](O)[C@H](C(=O)c2cc4ccccc4n2C)[C@H]3c2ccccc2)cc1`: “fluorescence polarization change” 6.5 mP.
For `COC(=O)[C@@H]1[C@@H](c2ccccc2)[C@]2(c3ccc(OC)cc3)Oc3cc(OC)cc(OC)c3[C@@]23NC(C2CCN(C(=O)OC(C)(C)C)CC2)=N[C@@]13O`, “fluorescence polarization change” read 41.2 mP.
For `COC(=O)[C@@H]1[C@@H](O)[C@@]2(O)c3c(OC)cc(F)cc3O[C@@]2(c2ccc(Cl)cc2)[C@H]1c1ccccc1`, “fluorescence polarization change” read 30.2 mP.
Under “fluorescence polarization change”, `COC(=O)[C@@H]1[C@@H](O)[C@@]2(O)c3c(OC)cc(OS(=O)(=O)c4ccc(C)cc4)cc3O[C@@]2(c2ccc(OC)cc2)[C@H]1c1ccccc1` is recorded as 7.3 mP.
For `COc1ccc([C@@]23Oc4cc(OC)cc(OC)c4[C@]2(O)[C@H](O)[C@H](C(=O)NCCCC(OC)OC)[C@H]3c2ccccc2)cc1`, “fluorescence polarization change” read 67.9 mP.
`COc1ccc([C@@]23Oc4cc(OC)cc(OC)c4[C@]2(O)c2nc(-c4ccccc4)nc(OC)c2[C@H]3c2ccccc2)cc1`: “fluorescence polarization change” -7.1 mP.

Sample 3
SMILES: CCOC(=O)c1cc2cc(-c3cc(C(=O)NCc4ccc(C(=O)O)cc4)nn3C)ccc2[nH]1
Effect on: cell-free assay
Technique: competition with immobilised ligand
Concentration: 0.1 µM
It gave 91% for remaining binding (Ribosomal protein S6 kinase alpha-5, N-terminal kinase domain (RPS6KA5, Homo sapiens, UniProt O75582)).
For CDK17 (Homo sapiens, UniProt Q00537): remaining binding read 100%.
The remaining binding was 90% (PLK1 (Homo sapiens, UniProt P53350)).
For SGK3 (Homo sapiens, UniProt Q96BR1): remaining binding read 82%.
The remaining binding was 97% (STK17A (Homo sapiens, UniProt Q9UEE5)).
FLT3 (Homo sapiens, UniProt P36888, D835Y) — remaining binding: 92%.
For MAP4K5 (Homo sapiens, UniProt Q9Y4K4): remaining binding read 93%.
EPHB2 (Homo sapiens, UniProt P29323) — remaining binding: 100%.
The remaining binding was 100% (MAP3K9 (Homo sapiens, UniProt P80192)).
For PIP4K2B (Homo sapiens, UniProt P78356): remaining binding read 100%.
It gave 96% for remaining binding (KIT (Homo sapiens, UniProt P10721, T670I/V559D)).
It gave 100% for remaining binding (EGFR (Homo sapiens, UniProt P00533, del752-759)).
For EPHA5 (Homo sapiens, UniProt P54756): remaining binding read 100%.
MYLK3 (Homo sapiens, UniProt Q32MK0) — remaining binding: 89%.
TAOK3 (Homo sapiens, UniProt Q9H2K8) — remaining binding: 85%.
The remaining binding was 93% (PIK3C2B (Homo sapiens, UniProt O00750)).
TIE1 (Homo sapiens, UniProt P35590) — remaining binding: 76%.
It gave 100% for remaining binding (NUAK1 (Homo sapiens, UniProt O60285)).

Sample 4
Target: Serine/threonine-protein kinase Sgk1 (SGK1, Homo sapiens, UniProt O00141)
Effect on: enzyme activity
Mode: inhibitor
Concentration: 0.5 µM
Baseline: control
Target sequence (O00141 1-431): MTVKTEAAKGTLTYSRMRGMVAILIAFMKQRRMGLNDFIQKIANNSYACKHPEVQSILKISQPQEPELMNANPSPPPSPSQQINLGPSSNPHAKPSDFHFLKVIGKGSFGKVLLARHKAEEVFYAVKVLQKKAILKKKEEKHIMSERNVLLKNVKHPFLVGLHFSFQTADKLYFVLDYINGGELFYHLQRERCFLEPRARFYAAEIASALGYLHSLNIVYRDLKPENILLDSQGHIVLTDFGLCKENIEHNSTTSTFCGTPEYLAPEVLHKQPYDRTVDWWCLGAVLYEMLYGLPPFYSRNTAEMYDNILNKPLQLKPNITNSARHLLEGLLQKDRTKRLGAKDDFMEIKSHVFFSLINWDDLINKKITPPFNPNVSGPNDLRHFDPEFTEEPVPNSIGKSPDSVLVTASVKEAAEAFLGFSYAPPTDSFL
`c1ccc(-c2[nH]ncc2-c2ccnc3ccccc23)nc1` has a remaining activity of 103%.
With `Nc1cccc(-c2cc3c(Oc4cccc(O)c4)ncnc3[nH]2)c1` the remaining activity was 101%.
The remaining activity of `Ic1cccc(CSc2nnc(-c3ccncc3)o2)c1` is reported as 99%.
`c1ccc(-c2cnc(Nc3ccc(OCCN4CCCC4)cc3)s2)cc1` has a remaining activity of 83.6%.
For `C[C@@H]1CCN(C(=O)CC#N)C[C@@H]1N(C)c1ncnc2[nH]ccc12`, the remaining activity was 123%.
`COc1cc2ncnc(Nc3cccc(Cl)c3)c2cc1OC` has a remaining activity of 91.3%.
`CN(C)C[C@H]1CCn2c(c(C3=C(c4cn(C)c5ccccc45)C(=O)NC3=O)c3ccccc32)C1` has a remaining activity of 72.9%.
With `CCN(CC)CCNC(=O)c1c(C)[nH]c(/C=C2\C(=O)Nc3ccc(F)cc32)c1C` the remaining activity was 62.8%.
For `CCN(CC)CCNC(=O)c1c(C)[nH]c(/C=C2\C(=O)Nc3ccc(Cl)cc32)c1C`, the remaining activity was 49.6%.
For `O=C(NC(NC(=S)Nc1ccc(F)c([N+](=O)[O-])c1)C(Cl)(Cl)Cl)C(c1ccccc1)c1ccccc1` (stereo not drawn), the remaining activity was 93.1%.
`Cc1cn(-c2cc(NC(=O)c3ccc(C)c(Nc4nccc(-c5cccnc5)n4)c3)cc(C(F)(F)F)c2)cn1` has a remaining activity of 125%.
With `CCOc1nc(NC(=O)Cc2cc(OC)ccc2OC)cc(N)c1C#N` the remaining activity was 105%.
`Cc1cc2ncc(-c3ccccc3)nc2cc1C` has a remaining activity of 103%.
With `COc1cc2ncnc(Nc3ccc(O)c(Br)c3)c2cc1OC` the remaining activity was 95.7%.
With `N#C/C(=C\c1ccc(O)c(O)c1)C(=O)NCc1ccccc1` the remaining activity was 103%.
With `Cn1nc2c3c(cccc31)C(=O)c1ccccc1-2` the remaining activity was 94.8%.
For `Cc1nc2cc3nc(-c4cccs4)cnc3cc2n1C`, the remaining activity was 95.9%.
`N#Cc1c(NC(=O)c2cccc3ccccc23)sc2c1CCCC2` has a remaining activity of 108%.
`CCN(CC)C(=O)c1ccc(Nc2nc(OCC3CCCCC3)c3[nH]cnc3n2)cc1` has a remaining activity of 84.7%.
With `O=C(Nc1cccc(Nc2nccc(Nc3cccc(C(F)(F)F)c3)n2)c1)C1CC1` the remaining activity was 103%.
For `O=C1C(Cl)=C(N2C(=O)CCC2=O)C(=O)c2ccccc21`, the remaining activity was 104%.
`COc1cc2c(cc1OC)-c1[nH]nc(Nc3cccc(F)c3)c1C2` has a remaining activity of 99.8%.
For `O=C1c2ccccc2-c2n[nH]c3cccc1c23`, the remaining activity was 59.5%.
With `CN([C@@H](Cc1ccc(OS(=O)(=O)c2cccc3cnccc23)cc1)C(=O)N1CCN(c2ccccc2)CC1)S(=O)(=O)c1cccc2cnccc12` the remaining activity was 105%.
For `O=c1cc(-c2cccc3c2Sc2ccccc2S3)oc(N2CCOCC2)c1`, the remaining activity was 90.6%.

Some of these lines once more (sample 2):
`C#CCOCCOCCNC(=O)CCCn1c(-c2ccccc2)nc2c(c1=O)[C@@H](c1ccccc1)[C@]1(c3ccc(OC)cc3)Oc3cc(OC)cc(OC)c3[C@]21O`: “fluorescence polarization change” 24.1 mP.
Under “fluorescence polarization change”, `COC(=O)[C@@H]1[C@@H](c2ccccc2)[C@]2(c3ccc(OC)cc3)Oc3cc(OC)cc(OC)c3[C@@]23OC(c2cccnc2)=N[C@@]13O` is recorded as -0.1 mP.
Under “fluorescence polarization change”, `COc1ccc([C@]23Oc4cc(OC)cc(OC)c4[C@](O)([C@H](C(=O)NCCCC(OC)OC)[C@H]2c2ccccc2)[C@H]3O)cc1` is recorded as 6.5 mP.
`COc1ccc([C@@]23Oc4cc(OC)cc(OC)c4[C@]2(O)[C@H](O)[C@H](C(=O)c2ccco2)[C@H]3c2ccccc2OC)cc1`: “fluorescence polarization change” 32.5 mP.
For `COc1ccc([C@@]23Oc4cc(OC)cc(OC)c4[C@]2(O)[C@H](O)[C@H](C(=O)NCCCC(OC)OC)[C@H]3c2ccccc2)cc1`, “fluorescence polarization change” read 67.9 mP.
For `COc1ccc([C@]23Oc4cc(OC)cc(OC)c4[C@@]2(O)c2nc(-c4ccc(C)cc4)[nH]c(=O)c2[C@@H]3c2ccccc2)cc1`, “fluorescence polarization change” read 29.5 mP.
Under “fluorescence polarization change”, `COc1ccc([C@@]23Oc4cc(OC)cc(OC)c4[C@]2(O)[C@@H](O)[C@H](C(=O)c2ccco2)[C@H]3c2ccccc2)cc1` is recorded as 24.4 mP.
For `COC(=O)[C@@H]1[C@@H](O)[C@@]2(O)c3c(OC)cc(F)cc3O[C@@]2(c2ccc(Cl)cc2)[C@H]1c1ccccc1`, “fluorescence polarization change” read 30.2 mP.
`COc1ccc([C@@]23Oc4cc(OC)cc(OC)c4[C@]2(O)c2nc(-c4ccccc4)nc(OC)c2[C@H]3c2ccccc2)cc1`: “fluorescence polarization change” -7.1 mP.
`COc1ccc([C@@]23Oc4cc(OC)cc(OC)c4[C@]2(O)c2nc(-c4ccccc4)n(CC(CC(=O)O)OC)c(=O)c2[C@H]3c2ccccc2)cc1` (stereo partly drawn) — result for “fluorescence polarization change”: 0.8 mP.
`COc1ccc([C@@]23Oc4cc(OC)cc(OC)c4[C@]2(O)[C@H](O)[C@H](C(=O)c2cc4ccccc4n2C)[C@H]3c2ccccc2)cc1`: “fluorescence polarization change” 6.5 mP.
